Measurements pooled from the literature.
Numbered parts are unrelated; each lists some results of a single study.

Block 1 — technique: protein binding microarray; molecule type: double-stranded DNA, one strand shown; matrix: in vitro; concentration: not given; reference: not given; reading: higher = stronger binding
Target: Histone acetyltransferase KAT6A, winged helix 1, GST fusion (KAT6A, Homo sapiens, UniProt Q92794, residues 1-85)
Setting: 8-mer, flanks averaged, mean of 2 arrays, mostly near background
Target sequence (chain): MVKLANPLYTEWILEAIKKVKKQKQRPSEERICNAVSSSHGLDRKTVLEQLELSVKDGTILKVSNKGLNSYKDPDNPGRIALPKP
Oligonucleotide | E-score
CCATTTTC | -0.158
TGCTACAA | -0.222
TAAAGGAA | -0.175

Block 2 — technique: RNAcompete; molecule type: RNA; matrix: in vitro; concentration: 20 nM; setting: 7-mer, probes averaged, single round; reference: mean of 7-mers; reading: higher = stronger binding
Target: PABPC1L2, full length, GST fusion (mouse, UniProt A0ABA7IW68)
Construct (chain): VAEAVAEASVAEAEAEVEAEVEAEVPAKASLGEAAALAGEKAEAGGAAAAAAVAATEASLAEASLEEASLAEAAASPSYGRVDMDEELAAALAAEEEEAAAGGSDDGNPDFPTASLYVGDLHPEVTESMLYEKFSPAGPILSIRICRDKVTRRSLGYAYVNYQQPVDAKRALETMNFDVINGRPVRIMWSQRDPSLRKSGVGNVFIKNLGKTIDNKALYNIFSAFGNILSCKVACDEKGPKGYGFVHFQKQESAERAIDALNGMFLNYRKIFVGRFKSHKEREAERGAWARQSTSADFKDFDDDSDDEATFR
Oligonucleotide | 7-mer Z-score
ACAUUAG | 0.104
UGGGUGG | 0.0587
UGACACC | -0.146

Other studies, line by line
Fmr1 C-terminal low-complexity region: Fragile X messenger ribonucleoprotein 1, C-terminal low-complexity region (Fmr1, Mus musculus, UniProt P35922)
Substance | target | test | system | setting | scale | quantity | result
GGGAGUUCUACAGUCCGACGAUCACCAUGCUGGUGGGCAUCUUUGGGAAGUGGGGCAAGGGGGGGAUAGGGAGGGGGGUAACACUUUGGGAACAGGUGGUCCCAGGUCGUUUCUGGAAUUCUCGGGUGUCAAGG | Fmr1 C-terminal low-complexity region | RNA Bind-n-Seq | RNA, in vitro | 200 nM, whole 134-nt RNA, ends assumed, added: 150 mM KCl | reference: input library, higher = stronger binding | log2 enrichment | 0.763
PhoQ, residues 284 288 289 292 302 303 SSTMSV | PhoP, residues 12 14 15 18 19 NYFTV (Escherichia coli, UniProt P23836) | Sort-seq, refers to: YFP reporter | E. coli | PhoQ-PhoP variant library, added: 10 µM Mg2+ | reference: high Mg2+ state, higher = stronger signaling | fold induction | 1.44
GGGAGUUCUACAGUCCGACGAUCGUCCUGUGCUACACAUCGUAUGUACCGAAUCGGGGUUUGGGGUUUGGGGUUUUUGGGGAAAGUAUUAUGUUACGCCGUUCGGAUCUGCACUGGAAUUCUCGGGUGUCAAGG | Fmr1 C-terminal low-complexity region | RNA Bind-n-Seq | RNA, in vitro | 200 nM, whole 134-nt RNA, ends assumed, added: 150 mM KCl | reference: input library, higher = stronger binding | log2 enrichment | 1.08

A few entries again (other studies, line by line):
Substance | target | test | system | setting | scale | quantity | result
GGGAGUUCUACAGUCCGACGAUCGUCCUGUGCUACACAUCGUAUGUACCGAAUCGGGGUUUGGGGUUUGGGGUUUUUGGGGAAAGUAUUAUGUUACGCCGUUCGGAUCUGCACUGGAAUUCUCGGGUGUCAAGG | Fmr1 C-terminal low-complexity region | RNA Bind-n-Seq | RNA, in vitro | 200 nM, whole 134-nt RNA, ends assumed, added: 150 mM KCl | reference: input library, higher = stronger binding | log2 enrichment | 1.08
